Assay results from different studies.
Parts stem from different laboratories: compare values within a part only. “And” joins repeats or separate records; there may be more than shown.
Sequence of UniProt P28482 (whole entry, looked up): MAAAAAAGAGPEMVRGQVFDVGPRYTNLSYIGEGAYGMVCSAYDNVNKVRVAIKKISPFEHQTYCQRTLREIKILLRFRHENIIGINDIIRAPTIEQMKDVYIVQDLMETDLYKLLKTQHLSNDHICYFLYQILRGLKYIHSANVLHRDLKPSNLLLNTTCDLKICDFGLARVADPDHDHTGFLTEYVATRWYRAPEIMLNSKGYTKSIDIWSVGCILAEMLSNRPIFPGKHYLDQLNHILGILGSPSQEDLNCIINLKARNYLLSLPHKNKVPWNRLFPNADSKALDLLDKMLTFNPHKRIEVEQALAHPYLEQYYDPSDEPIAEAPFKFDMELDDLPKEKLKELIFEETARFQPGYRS
Sequence of UniProt P09619 (whole entry, looked up): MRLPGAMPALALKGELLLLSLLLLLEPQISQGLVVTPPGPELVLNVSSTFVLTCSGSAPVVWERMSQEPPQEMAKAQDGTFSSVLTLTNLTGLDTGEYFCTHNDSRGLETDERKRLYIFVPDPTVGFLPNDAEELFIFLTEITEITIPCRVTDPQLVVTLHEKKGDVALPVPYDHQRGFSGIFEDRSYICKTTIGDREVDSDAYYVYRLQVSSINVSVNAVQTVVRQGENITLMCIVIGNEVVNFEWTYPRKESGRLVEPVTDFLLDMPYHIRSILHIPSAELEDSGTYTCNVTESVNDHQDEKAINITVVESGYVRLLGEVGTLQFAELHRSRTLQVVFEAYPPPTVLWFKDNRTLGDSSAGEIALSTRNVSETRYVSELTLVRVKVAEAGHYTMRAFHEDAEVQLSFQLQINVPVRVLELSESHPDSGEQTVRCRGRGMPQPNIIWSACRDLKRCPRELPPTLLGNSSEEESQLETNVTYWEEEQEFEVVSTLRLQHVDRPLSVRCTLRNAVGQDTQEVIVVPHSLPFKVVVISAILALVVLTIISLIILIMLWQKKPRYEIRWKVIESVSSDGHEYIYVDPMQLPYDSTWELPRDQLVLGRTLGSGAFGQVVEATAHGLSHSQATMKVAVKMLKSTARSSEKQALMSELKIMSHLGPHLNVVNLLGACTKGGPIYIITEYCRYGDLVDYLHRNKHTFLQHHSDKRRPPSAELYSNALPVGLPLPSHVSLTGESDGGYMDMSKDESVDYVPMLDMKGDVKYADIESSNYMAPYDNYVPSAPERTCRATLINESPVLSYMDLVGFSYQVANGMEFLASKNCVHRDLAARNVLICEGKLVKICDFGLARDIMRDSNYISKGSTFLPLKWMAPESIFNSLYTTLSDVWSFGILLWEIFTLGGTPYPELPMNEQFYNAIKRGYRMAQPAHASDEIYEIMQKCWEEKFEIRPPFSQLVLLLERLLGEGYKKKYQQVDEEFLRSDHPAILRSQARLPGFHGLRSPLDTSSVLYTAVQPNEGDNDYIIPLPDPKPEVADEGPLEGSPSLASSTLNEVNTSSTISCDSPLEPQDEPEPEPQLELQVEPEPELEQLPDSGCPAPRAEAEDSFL
Sequence of UniProt Q9HC98 (whole entry, looked up): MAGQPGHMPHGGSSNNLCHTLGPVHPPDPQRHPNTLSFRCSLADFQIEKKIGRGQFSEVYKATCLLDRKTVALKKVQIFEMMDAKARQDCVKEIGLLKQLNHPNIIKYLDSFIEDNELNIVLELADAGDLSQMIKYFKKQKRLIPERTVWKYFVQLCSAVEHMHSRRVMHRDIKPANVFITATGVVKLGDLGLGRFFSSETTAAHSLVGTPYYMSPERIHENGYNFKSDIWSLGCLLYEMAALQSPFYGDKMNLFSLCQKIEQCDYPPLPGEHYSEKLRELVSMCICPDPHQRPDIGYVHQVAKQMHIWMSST
Sequence of UniProt O00238 (whole entry, looked up): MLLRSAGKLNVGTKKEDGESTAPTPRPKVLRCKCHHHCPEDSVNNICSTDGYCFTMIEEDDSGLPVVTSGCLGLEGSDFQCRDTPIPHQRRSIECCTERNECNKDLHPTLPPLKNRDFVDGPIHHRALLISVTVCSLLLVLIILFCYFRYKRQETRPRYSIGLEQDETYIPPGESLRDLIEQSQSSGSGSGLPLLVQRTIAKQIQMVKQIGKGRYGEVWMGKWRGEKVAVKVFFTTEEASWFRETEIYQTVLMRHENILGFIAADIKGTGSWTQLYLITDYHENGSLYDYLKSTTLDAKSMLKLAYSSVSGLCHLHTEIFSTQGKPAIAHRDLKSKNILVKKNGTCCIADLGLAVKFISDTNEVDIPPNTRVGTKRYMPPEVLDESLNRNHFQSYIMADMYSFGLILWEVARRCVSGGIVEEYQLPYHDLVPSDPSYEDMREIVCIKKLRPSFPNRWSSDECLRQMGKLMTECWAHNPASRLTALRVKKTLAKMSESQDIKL
Sequence of UniProt O43283 (whole entry, looked up): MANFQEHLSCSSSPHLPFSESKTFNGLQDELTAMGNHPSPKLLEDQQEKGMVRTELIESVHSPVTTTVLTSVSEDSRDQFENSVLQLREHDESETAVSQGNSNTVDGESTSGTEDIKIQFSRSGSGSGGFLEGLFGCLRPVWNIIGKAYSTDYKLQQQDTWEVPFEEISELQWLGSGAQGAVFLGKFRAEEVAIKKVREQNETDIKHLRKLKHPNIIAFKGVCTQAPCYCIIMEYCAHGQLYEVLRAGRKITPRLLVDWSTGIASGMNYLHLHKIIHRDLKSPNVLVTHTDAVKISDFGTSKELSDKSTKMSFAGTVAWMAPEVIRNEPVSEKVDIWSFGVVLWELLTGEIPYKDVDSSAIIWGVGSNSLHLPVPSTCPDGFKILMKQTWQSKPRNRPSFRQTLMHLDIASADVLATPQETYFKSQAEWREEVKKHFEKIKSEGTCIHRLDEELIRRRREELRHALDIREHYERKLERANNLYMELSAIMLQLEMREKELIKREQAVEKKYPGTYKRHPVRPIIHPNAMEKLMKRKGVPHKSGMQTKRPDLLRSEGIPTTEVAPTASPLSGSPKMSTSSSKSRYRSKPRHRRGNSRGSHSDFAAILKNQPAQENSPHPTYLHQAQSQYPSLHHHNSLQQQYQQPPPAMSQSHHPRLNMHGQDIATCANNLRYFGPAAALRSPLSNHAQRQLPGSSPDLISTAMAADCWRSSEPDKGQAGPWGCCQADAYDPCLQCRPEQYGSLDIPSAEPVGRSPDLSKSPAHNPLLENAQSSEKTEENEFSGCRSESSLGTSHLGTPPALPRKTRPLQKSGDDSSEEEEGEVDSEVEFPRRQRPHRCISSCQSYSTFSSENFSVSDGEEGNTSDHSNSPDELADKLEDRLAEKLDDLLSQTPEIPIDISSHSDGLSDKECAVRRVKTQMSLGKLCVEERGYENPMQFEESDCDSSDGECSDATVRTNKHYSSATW
Sequence of UniProt Q8IW41 (whole entry, looked up): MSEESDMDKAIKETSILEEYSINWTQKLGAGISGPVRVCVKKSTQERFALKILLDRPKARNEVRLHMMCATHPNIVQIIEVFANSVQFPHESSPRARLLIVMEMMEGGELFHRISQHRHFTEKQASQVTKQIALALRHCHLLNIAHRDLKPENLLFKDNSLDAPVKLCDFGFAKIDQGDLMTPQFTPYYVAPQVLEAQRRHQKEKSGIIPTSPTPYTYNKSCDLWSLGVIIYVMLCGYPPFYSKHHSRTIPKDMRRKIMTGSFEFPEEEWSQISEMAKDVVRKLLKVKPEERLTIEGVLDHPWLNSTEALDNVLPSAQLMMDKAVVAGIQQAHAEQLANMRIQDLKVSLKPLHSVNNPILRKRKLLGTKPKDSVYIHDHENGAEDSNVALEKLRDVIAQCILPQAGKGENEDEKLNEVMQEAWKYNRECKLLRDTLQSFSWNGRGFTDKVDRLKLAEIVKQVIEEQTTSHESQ

Set 1
Compound: CC(=O)N[C@@H](Cc1c[nH]c2ccccc12)C(=O)N[C@@H](CCC(=O)C=[N+]=[N-])C(=O)OC(C)C
Route: subcutaneous
Dose: 0.3 mg/kg/day DON equivalent
Time: 5 days
Reading: higher = more metabolite
technique | refers to | cell line | host | sample | metabolite peak area
UPLC-MS/MS metabolomics | daidzein | EL4 | C57BL/6 CES1-/- mice, EL4 tumour | tumour | 70000 a.u. and 63200 a.u. and 28500 a.u. and 24100 a.u.
UPLC-MS/MS | dGMP |  | C57BL/6 CES1-/- mice | EL4 tumour | 1.59e+06 a.u. and 1.34e+06 a.u. and 1.38e+06 a.u. and 980000 a.u. and 1.32e+06 a.u. and 1.53e+06 a.u.
UPLC-MS/MS metabolomics | 2'-CMP | EL4 | C57BL/6 CES1-/- mice, EL4 tumour | tumour | 7.18e+06 a.u. and 1.15e+07 a.u. and 9.89e+06 a.u. and 5.94e+06 a.u. and 7.07e+06 a.u. and 3.65e+06 a.u.
UPLC-MS/MS metabolomics | dehydroascorbate | EL4 | C57BL/6 CES1-/- mice, EL4 tumour | tumour | 8.6e+06 a.u. and 5.08e+06 a.u. and 8.49e+06 a.u. and 7.43e+06 a.u. and 7.14e+06 a.u. and 7.47e+06 a.u.
UPLC-MS/MS | xanthosine |  | C57BL/6 CES1-/- mice | EL4 tumour | 705000 a.u. and 1.97e+06 a.u. and 2.9e+06 a.u. and 2.5e+06 a.u. and 325000 a.u. and 1.26e+06 a.u.
UPLC-MS/MS | ribulose/xylulose 5-phosphate |  | C57BL/6 CES1-/- mice | EL4 tumour | 241000 a.u. and 118000 a.u. and 59100 a.u. and 223000 a.u. and 147000 a.u.
UPLC-MS/MS metabolomics | formiminoglutamate | EL4 | C57BL/6 CES1-/- mice, EL4 tumour | tumour | 221000 a.u. and 225000 a.u. and 350000 a.u. and 216000 a.u. and 302000 a.u. and 272000 a.u.
UPLC-MS/MS | thymidine |  | C57BL/6 CES1-/- mice | EL4 tumour | 1.78e+06 a.u. and 4.19e+06 a.u. and 4.02e+06 a.u. and 3.83e+06 a.u. and 3.36e+06 a.u. and 2.64e+06 a.u.

Set 2
SMILES: O=C(O)[C@H]1[C@H](Cn2nnc3ccccc3c2=O)CC[C@@H]1C(=O)c1ccc(OCCC2CCOCC2)cc1
Concentration: 1 µM
target | observed | technique | remaining binding [%]
BTK (Homo sapiens, UniProt Q06187) | cell-free assay | competition with immobilised ligand | 100
PDGFRB (Homo sapiens, UniProt P09619) | cell-free assay | competition with immobilised ligand | 88
SBK1 (Homo sapiens, UniProt Q52WX2) | cell-free assay | competition with immobilised ligand | 68
MAPKAPK5 (Homo sapiens, UniProt Q8IW41) | cell-free assay | competition with immobilised ligand | 99
BRSK1 (Homo sapiens, UniProt Q8TDC3) | cell-free assay | competition with immobilised ligand | 78
BMPR1B (Homo sapiens, UniProt O00238) | cell-free assay | competition with immobilised ligand | 95
MAPK1 (Homo sapiens, UniProt P28482) | cell-free assay | competition with immobilised ligand | 100
CDK2 (Homo sapiens, UniProt P24941) | cell-free assay | competition with immobilised ligand | 100
NEK6 (Homo sapiens, UniProt Q9HC98) | cell-free assay | competition with immobilised ligand | 100
FLT3 (Homo sapiens, UniProt P36888, D835Y) | cell-free assay | competition with immobilised ligand | 96
LCK (Homo sapiens, UniProt P06239) | cell-free assay | competition with immobilised ligand | 78
PRKD3 (Homo sapiens, UniProt O94806) | cell-free assay | competition with immobilised ligand | 88
MAPK15 (Homo sapiens, UniProt Q8TD08) | cell-free assay | competition with immobilised ligand | 100
SIK1 (Homo sapiens, UniProt P57059) |  | competition binding | 100
EPHA6 (Homo sapiens, UniProt Q9UF33) | cell-free assay | competition with immobilised ligand | 85
MAP3K13 (Homo sapiens, UniProt O43283) | cell-free assay | competition with immobilised ligand | 96
COQ8A (Homo sapiens, UniProt Q8NI60) | cell-free assay | competition with immobilised ligand | 100
PAK4 (Homo sapiens, UniProt O96013) | cell-free assay | competition with immobilised ligand | 91
Ribosomal protein S6 kinase alpha-5, C-terminal kinase domain (RPS6KA5, Homo sapiens, UniProt O75582) | cell-free assay | competition with immobilised ligand | 100

Set 3
SMILES: CN1CCC[C@H]1COc1nc2c(c(N3CCN(S(C)(=O)=O)[C@@H](CC#N)C3)n1)CCN(c1cccc3cccc(Cl)c13)C2
Observed: binding
Technique: NanoBRET
Cell line: HEK293 (live)
Reading: lower = stronger binding
HRAS: GTPase HRas (HRAS, Homo sapiens, UniProt P01112)
KRAS G12D: GTPase KRas (KRAS, Homo sapiens, UniProt P01116, G12D)
target | concentration | target engagement
HRAS | 0.5686 µM | 80.7% and 102% and 80%
KRAS G12D | 1.523 µM | 43.6% and 39.2% and 30.6%
KRAS G12D | 0.5686 µM | 80.5% and 69.8% and 84.7%
HRAS | 1.046 µM | 90.4% and 107% and 83.9%
KRAS G12D | 1.046 µM | 75.4% and 54.8% and 70.6%
HRAS | 1.523 µM | 81.7% and 83.1% and 111%
HRAS | 0.09151 µM | 98.5% and 85% and 80.9%
KRAS G12D | 0.09151 µM | 90.2% and 87.6% and 78.6%

Set 4
Target: Proto-oncogene tyrosine-protein kinase receptor Ret (RET, Homo sapiens, UniProt P07949)
Sequence of UniProt P07949 (whole entry, looked up): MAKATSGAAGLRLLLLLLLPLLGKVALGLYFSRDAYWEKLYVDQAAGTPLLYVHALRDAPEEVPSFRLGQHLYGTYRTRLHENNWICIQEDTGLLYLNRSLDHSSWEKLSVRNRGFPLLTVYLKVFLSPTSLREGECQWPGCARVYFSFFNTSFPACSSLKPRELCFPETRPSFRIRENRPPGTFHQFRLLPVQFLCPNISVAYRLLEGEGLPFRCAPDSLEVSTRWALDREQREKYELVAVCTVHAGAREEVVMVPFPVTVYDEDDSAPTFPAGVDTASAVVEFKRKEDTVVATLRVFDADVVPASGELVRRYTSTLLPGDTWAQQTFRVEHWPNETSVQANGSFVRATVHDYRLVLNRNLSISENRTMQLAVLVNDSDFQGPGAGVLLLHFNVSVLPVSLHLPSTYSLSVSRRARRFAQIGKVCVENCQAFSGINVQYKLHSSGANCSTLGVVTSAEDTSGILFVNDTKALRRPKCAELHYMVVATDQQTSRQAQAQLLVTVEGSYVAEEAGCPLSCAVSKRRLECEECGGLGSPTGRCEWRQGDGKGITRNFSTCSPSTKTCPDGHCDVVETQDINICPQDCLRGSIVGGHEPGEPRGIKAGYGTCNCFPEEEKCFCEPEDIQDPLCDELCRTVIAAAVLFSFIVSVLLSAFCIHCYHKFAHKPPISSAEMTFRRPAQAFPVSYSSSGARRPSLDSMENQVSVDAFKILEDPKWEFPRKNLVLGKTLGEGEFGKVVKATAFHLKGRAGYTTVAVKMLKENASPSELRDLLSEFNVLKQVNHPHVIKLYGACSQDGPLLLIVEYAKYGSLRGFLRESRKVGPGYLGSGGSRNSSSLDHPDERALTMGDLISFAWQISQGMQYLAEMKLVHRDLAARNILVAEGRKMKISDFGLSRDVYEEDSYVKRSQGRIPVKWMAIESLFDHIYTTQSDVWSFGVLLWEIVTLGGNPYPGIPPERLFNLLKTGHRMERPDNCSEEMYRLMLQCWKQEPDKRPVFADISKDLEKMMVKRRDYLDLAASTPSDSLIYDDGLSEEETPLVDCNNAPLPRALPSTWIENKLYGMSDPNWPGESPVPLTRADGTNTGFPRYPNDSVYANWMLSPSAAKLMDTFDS
Observed: enzyme activity
Mode: inhibitor
Concentration: 0.5 µM
Relative to: control
SMILES | remaining activity [%]
N#Cc1c(NC(=O)c2cccc3ccccc23)sc2c1CCCC2 | 105
CN([C@@H](Cc1ccc(OS(=O)(=O)c2cccc3cnccc23)cc1)C(=O)N1CCN(c2ccccc2)CC1)S(=O)(=O)c1cccc2cnccc12 | 105
Cn1nc2c3c(cccc31)C(=O)c1ccccc1-2 | 83.8
COc1cc2ncnc(Nc3cccc(Cl)c3)c2cc1OC | 35.3
Cc1cc2ncc(-c3ccccc3)nc2cc1C | 88
c1ccc(-c2[nH]ncc2-c2ccnc3ccccc23)nc1 | 93.8
COc1cc2ncnc(Nc3ccc(O)c(Br)c3)c2cc1OC | 21.4
c1ccc(-c2cnc(Nc3ccc(OCCN4CCCC4)cc3)s2)cc1 | 84.2
O=C1c2ccccc2-c2n[nH]c3cccc1c23 | 34.2
Nc1cccc(-c2cc3c(Oc4cccc(O)c4)ncnc3[nH]2)c1 | -0.229
O=C(Nc1cccc(Nc2nccc(Nc3cccc(C(F)(F)F)c3)n2)c1)C1CC1 | 88.6
O=C1C(Cl)=C(N2C(=O)CCC2=O)C(=O)c2ccccc21 | 98
Cc1cn(-c2cc(NC(=O)c3ccc(C)c(Nc4nccc(-c5cccnc5)n4)c3)cc(C(F)(F)F)c2)cn1 | 70.5
Ic1cccc(CSc2nnc(-c3ccncc3)o2)c1 | 103
N#C/C(=C\c1ccc(O)c(O)c1)C(=O)NCc1ccccc1 | 108
Cc1nc2cc3nc(-c4cccs4)cnc3cc2n1C | 68.9
CCN(CC)CCNC(=O)c1c(C)[nH]c(/C=C2\C(=O)Nc3ccc(Cl)cc32)c1C | 2.47
O=c1cc(-c2cccc3c2Sc2ccccc2S3)oc(N2CCOCC2)c1 | 82.4
CCOc1nc(NC(=O)Cc2cc(OC)ccc2OC)cc(N)c1C#N | 104
CN(C)C[C@H]1CCn2c(c(C3=C(c4cn(C)c5ccccc45)C(=O)NC3=O)c3ccccc32)C1 | 99.7
CCN(CC)C(=O)c1ccc(Nc2nc(OCC3CCCCC3)c3[nH]cnc3n2)cc1 | 7.65
COc1cc2c(cc1OC)-c1[nH]nc(Nc3cccc(F)c3)c1C2 | 83.6

Some of these lines once more (set 3):
target | concentration | target engagement
KRAS G12D | 1.523 µM | 43.6% and 39.2% and 30.6%
KRAS G12D | 0.5686 µM | 80.5% and 69.8% and 84.7%
HRAS | 1.046 µM | 90.4% and 107% and 83.9%
KRAS G12D | 1.046 µM | 75.4% and 54.8% and 70.6%
HRAS | 1.523 µM | 81.7% and 83.1% and 111%
